Experimental data from different studies.
Protocols differ between the studies behind these lines. ± gives the spread as reported.

| Compound | tested on | test | test system | conditions | how to read | measurement | result |
| --- | --- | --- | --- | --- | --- | --- | --- |
| Cc1ccc(C(C)C)cc1.[C-]#[O+].[C-]#[O+].[C-]#[O+].[Cl-].[Cl-].[Cl-].[Re+].[Ru+2].c1cnc(-c2ncccn2)nc1 | calf thymus DNA | – | – | concentration not given | – | number of binding sites | 0.91 |
| CC/C=C\C/C=C\C/C=C\C/C=C\C/C=C\C/C=C\CCC(=O)Nc1ccn(C2OC(CO)C(O)C2(F)F)c(=O)n1 (stereo not shown) | SN12C | NCI60 screen | – | – | – | TGI | 4.49 µM |
| O=C(NC1CC1)N1CCCN2CCC(c3ccc(C#Cc4ccccc4)cc3)C2C1 (stereo not shown) | Toxoplasma gondii | parasite growth | HFF, RH type I luciferase | – | – | EC90 | 4.78 µM |
| COc1cc(CNC(=O)C[C@H](C)CCC=C(C)C)ccc1OCc1cn(-c2cccc([N+](=O)[O-])c2)nn1 | TK-10 | SRB | – | 10 µM, 48 h | – | growth percent | 72.4% |
| CC(=O)OC[C@H]1O[C@@H](Sc2sc(C(=O)c3ccc(C)cc3)c(N)c2-c2nc3ccccc3s2)[C@H](OC(C)=O)[C@@H](OC(C)=O)[C@@H]1OC(C)=O | UACC-257 | SRB | – | 10 µM, 48 h | reference: untreated | growth | 79.3% |
| CC[C@H]1[C@@H](O)[C@@H]2[C@H](CC[C@]3(C)[C@@H]([C@H](C)CCOS(=O)(=O)[O-])CC[C@@H]23)[C@@]2(C)CC[C@@H](O)C[C@@H]12.[Na+] | – | – | ob/ob NASH mice, liver | oral, 10 mg/kg once daily, 8 wk | – | liver total cholesterol | 18 ± 1.5 mg/g tissue |
| CCCCCCCCCCCCCCCC(=O)NCCCC[C@H](N)C(=O)N[C@@H](CC(=O)O)C(=O)N[C@H](C(=O)N[C@@H](Cc1c[nH]cn1)C(=O)N[C@@H](Cc1ccccc1)C(=O)N[C@@H](CCCNC(=N)N)C(=O)N[C@H](C(=O)N[C@@H](Cc1ccccc1)C(=O)N[C@@H](CCCNC(=N)N)C(=O)N[C@@H](CO)C(=O)N[C@@H](Cc1c[nH]cn1)C(=O)N[C@@H](CO)C(=O)N[C@@H](CC(=O)O)C(=O)N[C@@H](Cc1ccc(O)cc1)C(=O)N[C@@H](CCCNC(=N)N)C(=O)N[C@@H](CCCNC(=N)N)C(=O)N[C@H](C(=O)O)[C@@H](C)CC)[C@@H](C)O)[C@@H](C)O | – | – | C57BL/6J mouse, MCD diet | intraperitoneal, 0.6 nmol/g, 3 weeks, 3 times weekly | – | serum triglycerides | 58.6 ± 7.5 mg/dL |
| COC(=O)c1cnc(-c2cnccn2)cc1C(=O)OC.COC(=O)c1cnc(-c2cnccn2)cc1C(=O)OC.F[P-](F)(F)(F)(F)F.[Ag+] | calf thymus DNA | ethidium bromide displacement | – | – | – | fluorescence quenching | 17.9% |
| COc1cc(CNC(=O)C[C@H](C)CCC=C(C)C)ccc1OCc1cn(-c2ccc([N+](=O)[O-])cc2)nn1 | SK-MEL-5 melanoma cells | SRB | – | 10 µM, 48 h | – | growth percent | 35.9% |
| O=C(N[C@@H](CC1CCCCC1)C(=O)N[C@@H](C[C@H]1CCNC1=O)C(=O)C(=O)NC1CC1)OCc1cccc(Cl)c1 | human rhinovirus 51 | viral replication | WI-38 | 37 °C | – | EC50 | 70 ± 10 nM |
| COc1cc(CNC(=O)C[C@H](C)CCC=C(C)C)ccc1OCc1cn(-c2cccc(Cl)c2)nn1 | SN12C | SRB | – | 10 µM, 48 h | – | growth percent | 79.4% |
| O=Cc1c(O)ccc2ccccc12 | HUVEC | RNA sequencing, refers to: LYVE1 | – | 75 µM, 24 h | reference: DMSO | log2 fold change | -3.89 |
| CC(=O)OC[C@H]1O[C@@H](Sc2sc(C(=O)c3ccc(Br)cc3)c(N)c2-c2nc3ccccc3s2)[C@H](OC(C)=O)[C@@H](OC(C)=O)[C@@H]1OC(C)=O | UACC-257 | SRB | – | 10 µM, 48 h | reference: untreated | growth | 80.2% |
| COc1cc(CNC(=O)C[C@H](C)CCC=C(C)C)ccc1OCc1cn(-c2ccc(Cl)cc2Cl)nn1 | SK-OV-3 ovarian cancer cells | SRB | – | 10 µM, 48 h | – | growth percent | 26.1% |
| Cc1ccc(NC(=O)N2CCCN3CCC(c4ccc(C#CC5CCCC5O)cc4)C3C2)cc1 (stereo not shown) | Toxoplasma gondii | parasite growth | HFF, RH type I luciferase | – | – | EC90 | 0.52 ± 0.06 µM |
| COc1cc(CNC(=O)C[C@H](C)CCC=C(C)C)ccc1OCc1cn(-c2ccccc2Cl)nn1 | KM12 | SRB | – | 10 µM, 48 h | – | growth percent | 63% |
| COc1ccc(NC(=O)N2CCCN3CCC(c4ccc(C#Cc5cccnn5)cc4)C3C2)cc1 (stereo not shown) | Toxoplasma gondii | parasite growth | HFF, RH type I luciferase | – | – | EC90 | 3.63 ± 0.13 µM |
| COc1cc(CNC(=O)C[C@H](C)CCC=C(C)C)ccc1OCc1cn(-c2cccc(C(F)(F)F)c2)nn1 | NCI-H322M | SRB | – | 10 µM, 48 h | – | growth percent | 90.1% |
| Cc1cc(O)c(C=O)c2c1C(=O)Oc1c(CO)c(O)c3c(c1O2)C(O)OC3=O (stereo not shown) | – | – | streptozotocin-diabetic male albino rats, serum | dose not given, 9 weeks | reference: diabetic control | testosterone level | increased |

Repeated from above:
| Compound | tested on | test | test system | conditions | how to read | measurement | result |
| --- | --- | --- | --- | --- | --- | --- | --- |
| COc1cc(CNC(=O)C[C@H](C)CCC=C(C)C)ccc1OCc1cn(-c2cccc(C(F)(F)F)c2)nn1 | NCI-H322M | SRB | – | 10 µM, 48 h | – | growth percent | 90.1% |
